Literature values, collected from citations in different studies.
Protocols differ between the studies behind these lines. ± gives the spread as reported.
Chain of UniProt Q00961 (whole entry, looked up): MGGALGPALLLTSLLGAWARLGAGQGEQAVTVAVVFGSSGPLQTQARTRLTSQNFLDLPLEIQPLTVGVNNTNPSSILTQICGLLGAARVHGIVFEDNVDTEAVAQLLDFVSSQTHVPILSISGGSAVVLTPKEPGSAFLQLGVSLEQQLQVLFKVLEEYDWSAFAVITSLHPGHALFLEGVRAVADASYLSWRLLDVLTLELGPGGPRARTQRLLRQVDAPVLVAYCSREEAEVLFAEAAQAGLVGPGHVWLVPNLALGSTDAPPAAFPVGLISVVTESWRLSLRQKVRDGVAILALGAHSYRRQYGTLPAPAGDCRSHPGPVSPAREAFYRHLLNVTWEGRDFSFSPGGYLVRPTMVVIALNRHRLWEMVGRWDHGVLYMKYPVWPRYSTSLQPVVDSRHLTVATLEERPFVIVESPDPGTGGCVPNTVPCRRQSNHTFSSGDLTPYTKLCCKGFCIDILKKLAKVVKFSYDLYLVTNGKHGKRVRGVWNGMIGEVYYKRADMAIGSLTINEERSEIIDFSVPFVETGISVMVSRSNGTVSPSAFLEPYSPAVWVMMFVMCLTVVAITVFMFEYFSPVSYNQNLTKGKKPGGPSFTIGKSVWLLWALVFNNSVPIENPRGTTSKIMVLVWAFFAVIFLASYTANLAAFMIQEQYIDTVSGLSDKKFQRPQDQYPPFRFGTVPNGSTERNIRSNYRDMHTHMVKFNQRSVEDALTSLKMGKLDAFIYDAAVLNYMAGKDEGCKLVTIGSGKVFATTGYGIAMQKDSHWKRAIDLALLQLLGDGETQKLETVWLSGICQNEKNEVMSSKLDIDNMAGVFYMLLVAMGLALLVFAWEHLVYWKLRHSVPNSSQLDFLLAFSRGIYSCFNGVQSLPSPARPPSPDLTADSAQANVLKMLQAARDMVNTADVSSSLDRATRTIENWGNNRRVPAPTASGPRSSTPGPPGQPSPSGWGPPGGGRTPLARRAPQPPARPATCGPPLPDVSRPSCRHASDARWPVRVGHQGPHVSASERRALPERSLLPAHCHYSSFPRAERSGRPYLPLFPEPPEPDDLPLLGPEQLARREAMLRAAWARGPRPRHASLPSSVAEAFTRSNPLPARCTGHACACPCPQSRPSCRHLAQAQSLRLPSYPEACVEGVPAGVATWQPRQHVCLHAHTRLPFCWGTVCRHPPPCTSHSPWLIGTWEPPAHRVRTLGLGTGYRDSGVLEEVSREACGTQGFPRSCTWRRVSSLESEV

| Structure (SMILES) | tested on | assay | system | setting | quantity | value |
| --- | --- | --- | --- | --- | --- | --- |
| CCOC(=O)c1c(C)n(-c2ccccc2)c2ccc(OC(=O)c3cc(OC)c(OC)c(OC)c3)cc12 | Trypanosoma brucei rhodesiense | – | STIB 900 | – | IC50 | 10.8 µM |
| Cc1ccc(C(=O)Nc2ccc(S(=O)(=O)O)c3cc(S(=O)(=O)O)cc(S(=O)(=O)O)c23)cc1NC(=O)c1cccc(NC(=O)Nc2cccc(C(=O)Nc3cc(C(=O)Nc4ccc(S(=O)(=O)O)c5cc(S(=O)(=O)O)cc(S(=O)(=O)O)c45)ccc3C)c2)c1 | Trypanosoma evansi | cell growth | Tansui | – | IC50 | 0.38 ± 0.058 µM |
| C#CCCCCC(=O)N(C)[C@H](C(=O)N(C)[C@H](C(=O)N(C)[C@H](C(=O)N(C)[C@@H](C)C(=O)N(C)[C@@H](Cc1ccccc1)C(=O)N(C)C)C(C)C)C(C)C)C(C)C | Leishmania donovani | – | – | – | IC50 | 3.1 µM |
| Cc1cccc2nc(-c3ccc(-c4ccc(CN5CC(C)OC(C)C5)cc4)cc3)[nH]c12 (stereo not drawn) | Plasmodium falciparum | – | 3D7 | 72 h, whole cell | IC50 | 0.522 µM |
| N=C(N)c1ccc(N=NNc2ccc(C(=N)N)cc2)cc1 | Trypanosoma equiperdum | cell growth | IVM-t1 | – | IC50 | 0.011 ± 0.0029 µM |
| c1ccc(CNc2nc(Nc3ccccc3)nc3ccccc23)cc1 | Trypanosoma brucei brucei | – | Squib 427 | – | IC50 | 3.4 µM |
| C[C@]12CC[C@@H]3c4ccc(O)cc4CC[C@H]3[C@@H]1CCC2=O | HT-22 | cell protection | – | with: glutamate 20 mM | EC50 | 8.92 µM |
| NCCCC(N)(C(=O)O)C(F)F (stereo not drawn) | Trypanosoma brucei brucei | cell growth | GUTat3.1 | – | IC50 | 38.6 ± 9.88 µM |
| Cc1nc2ccccc2c(O)c1CC=C(Cl)Cl | Trypanosoma brucei brucei | – | Squib 427 | – | IC50 | > 32 µM |
| CO[C@@H]1[C@H](OC(=O)/C=C/C=C/C=C/C=C/C(=O)O)CC[C@]2(CO2)[C@H]1[C@@]1(C)O[C@@H]1CC=C(C)C | Giardia duodenalis | growth | – | – | IC50 | 0.002 to 0.01 µM |
| O=C(O)c1cc2cc(Br)ccc2oc1=O | Glutamate NMDA receptor; Grin1/Grin2c (Rattus norvegicus, UniProt P35439+Q00961) | – | – | concentration not given | inhibition | 100% |
| c1cc(CN2CCCNCCNCCCNCC2)ccc1CN1CCCNCCNCCCNCC1 | HIV | viral replication | – | – | IC50 | 0.01 µM |
| COc1ccc(-c2oc3cc(O)c(OC)c(O)c3c(=O)c2OC)cc1 | Trypanosoma cruzi | – | epimastigotes and trypomastigotes | – | IC50 | > 30 µM |
| O=C(Nc1ncnc2c1ncn2[C@@H]1O[C@@H]2COP(=O)(O)OC2C1O)c1ccccc1 (stereo in doubt) | PDE1C | cyclic nucleotide hydrolysis, substrate or inhibitor, isothermal titration calorimetry | – | – | Km or Ki | 323 µM |
| CCCCCCCCCCCCCCCCOP(=O)([O-])OCC[N+](C)(C)C | Trypanosoma brucei | parasite growth | – | in vitro | IC50 | 35.5 µM |
| Cc1cc2nc(N)[nH]c2cc1C | Pseudomonas aeruginosa | RhlR quorum sensing | PAO1 reporter | – | IC50 | 12.5 µM |
| C=CCCCCCC(=O)N(C)[C@H](C(=O)N(C)[C@H](C(=O)N(C)[C@H](C(=O)N(C)[C@@H](C)C(=O)N(C)[C@@H](Cc1ccccc1)C(=O)OC)C(C)C)C(C)C)C(C)C | Leishmania donovani | – | – | – | IC50 | > 14 µM |
| CC(=O)c1ccc(NC(=O)CSc2nc(-c3ccccc3Cl)ns2)cc1 | Trypanosoma brucei brucei | – | Squib 427 | – | IC50 | > 32 µM |
| CC(C)Oc1cc(-n2nc(C(C)(C)C)oc2=O)c(Cl)cc1Cl | Toxoplasma gondii | intracellular growth, inhibitor | wild type Nluc | – | IC50 | 131 ± 3.9 µM |
| CCOc1ccc(/C=C/c2nc(=O)c3ccccc3o2)cc1 | Trypanosoma brucei brucei | – | Squib 427 | – | IC50 | > 32 µM |
| Nc1nc(O)c2ncn(COC(CO)CO)c2n1 | human cytomegalovirus | viral replication, inhibitor, colorimetric | – | – | IC50 | 9 µM |
| N=C(N)c1ccc(OCCCCCOc2ccc(C(=N)N)cc2)cc1 | Trypanosoma brucei rhodesiense | cell growth | IL1501 | – | IC50 | 0.029 ± 0.0062 µM |
| FC(F)(F)c1cccc(CNC2CCN(CCc3ccccc3)CC2)c1 | Trypanosoma brucei rhodesiense | – | STIB 900 | – | IC50 | 1.3 µM |
| C=CCCCCC(=O)N(C)[C@H](C(=O)N(C)[C@H](C(=O)N(C)[C@H](C(=O)N(C)[C@@H](C)C(=O)N(C)[C@@H](Cc1ccccc1)C(=O)O)C(C)C)C(C)C)C(C)C | Leishmania donovani | – | – | – | IC50 | > 14 µM |
| N=C(N)c1cccc(/C=N/N=C(\N)N/N=C/c2cccc(C(=N)N)c2)c1 | Trypanosoma brucei | parasite growth | – | – | IC50 | 20 µM |
| CCC(C)c1c(O)ccc2c1CC[C@@H]1[C@@H]2CC[C@]2(C)C(=O)CC[C@@H]12 (stereo partly drawn) | HT-22 | cell protection | – | with: glutamate 20 mM | EC50 | 0.27 µM |
| c1ccc(-c2ccc(-c3nc4ccccc4[nH]3)cc2)cc1 | Trypanosoma brucei rhodesiense | – | STIB 900 | – | IC50 | > 32 µM |
| O=C(NC(c1ccccc1)c1ccc2cccnc2c1O)c1ccccc1 (stereo not drawn) | Trypanosoma cruzi | parasite growth, reporter gene | MRC-5 host cells | 7 days | IC50 | < 0.13 µM |
| Nc1nc2c(nc(Sc3ccc(Cl)cc3)n2C2O[C@@H]3COP(=O)(O)O[C@H]3[C@H]2O)c(=O)[nH]1 (stereo in doubt) | PDE1B | cyclic nucleotide hydrolysis, substrate or inhibitor, isothermal titration calorimetry | – | – | Km or Ki | 8.62 µM |
| COc1ccc2sc(N(Cc3cccnc3)C(=O)c3ccc(C#N)cc3)nc2c1 | Trypanosoma brucei rhodesiense | – | STIB 900 | – | IC50 | 16.1 µM |

Repeated from above:
| Structure (SMILES) | tested on | assay | system | setting | quantity | value |
| --- | --- | --- | --- | --- | --- | --- |
| CCOc1ccc(/C=C/c2nc(=O)c3ccccc3o2)cc1 | Trypanosoma brucei brucei | – | Squib 427 | – | IC50 | > 32 µM |
| Cc1ccc(C(=O)Nc2ccc(S(=O)(=O)O)c3cc(S(=O)(=O)O)cc(S(=O)(=O)O)c23)cc1NC(=O)c1cccc(NC(=O)Nc2cccc(C(=O)Nc3cc(C(=O)Nc4ccc(S(=O)(=O)O)c5cc(S(=O)(=O)O)cc(S(=O)(=O)O)c45)ccc3C)c2)c1 | Trypanosoma evansi | cell growth | Tansui | – | IC50 | 0.38 ± 0.058 µM |
| C[C@]12CC[C@@H]3c4ccc(O)cc4CC[C@H]3[C@@H]1CCC2=O | HT-22 | cell protection | – | with: glutamate 20 mM | EC50 | 8.92 µM |
| FC(F)(F)c1cccc(CNC2CCN(CCc3ccccc3)CC2)c1 | Trypanosoma brucei rhodesiense | – | STIB 900 | – | IC50 | 1.3 µM |
